Published values from different studies.

SMILES	test	system	setting	scale	measurement	value
CC(C)n1c(Nc2cccnc2)nc2cnc(Nc3ccc(N4CCN(C)CC4)cc3)nc21	measured: Rash	healthy male subjects	oral, 100 mg, together with: itraconazole	–	adverse event incidence	7.1%
Cc1cc(Nc2ccc(S(F)(F)(F)(F)F)cc2)n2nc(C(C)(F)F)nc2n1	–	Plasmodium falciparum malaria patients	oral, 250 mg	–	adverse event Diarrhoea	9.1%
CC[C@H](C)[C@H](NC(=O)[C@H](Cc1ccccc1)NC(=O)[C@H](CCC(=O)O)NC(=O)[C@H](CCCCNC(=O)COCCOCCNC(=O)COCCOCCNC(=O)CC[C@H](NC(=O)CCCCCCCCCCCCCCCCC(=O)O)C(=O)O)NC(=O)[C@H](C)NC(=O)[C@H](C)NC(=O)[C@H](CCC(N)=O)NC(=O)CNC(=O)[C@H](CCC(=O)O)NC(=O)[C@H](CC(C)C)NC(=O)[C@H](Cc1ccc(O)cc1)NC(=O)[C@H](CO)NC(=O)[C@H](CO)NC(=O)[C@@H](NC(=O)[C@H](CC(=O)O)NC(=O)[C@H](CO)NC(=O)[C@@H](NC(=O)[C@H](Cc1ccccc1)NC(=O)[C@@H](NC(=O)CNC(=O)[C@H](CCC(=O)O)NC(=O)C(C)(C)NC(=O)[C@@H](N)Cc1cnc[nH]1)[C@@H](C)O)[C@@H](C)O)C(C)C)C(=O)N[C@@H](C)C(=O)N[C@@H](Cc1c[nH]c2ccccc12)C(=O)N[C@@H](CC(C)C)C(=O)N[C@H](C(=O)N[C@@H](CCCNC(=N)N)C(=O)NCC(=O)N[C@@H](CCCNC(=N)N)C(=O)NCC(=O)O)C(C)C	measured: Constipation	type 2 diabetes patients	dose not given	reference: subjects	adverse event incidence	20%
Cc1c(Cl)c(C)[n+]([O-])c(Cl)c1-c1noc(-c2cc(O)c(O)c([N+](=O)[O-])c2)n1	measured: Presyncope	healthy Chinese subjects	oral, 100 mg, 4 days	–	adverse drug reaction incidence	0%
NCCONC(=O)[C@@H]1CC[C@@H]2CN1C(=O)N2OS(=O)(=O)O	measured: increased bile acids	healthy Chinese men	intravenous, 2 g, treatment-emergent	–	adverse event incidence	0%
FC(F)(F)c1ccc(CNc2ccc(Cc3c[nH]c4ncc(Cl)cc34)cn2)cn1	measured: neutropenia	patients with advanced solid tumours	oral, dose not given, grade 3 and 4, possibly related to drug	–	adverse event incidence	9%
Cc1ccc(Sc2ccccc2N2CCNCC2)c(C)c1	any TEAE	healthy adult men	oral, 10 mg single dose, 8 nights, overall	–	adverse event incidence	15%
O=C1CCc2ccc(OCCCCN3CCN(c4cccc(Cl)c4Cl)CC3)cc2N1	measured: Constipation	patients, CYP2D6 ultrarapid metabolizers	dose not given, long-acting oral or depot	–	adverse event incidence	0%

Repeated from above:
SMILES	test	system	setting	scale	measurement	value
O=C1CCc2ccc(OCCCCN3CCN(c4cccc(Cl)c4Cl)CC3)cc2N1	measured: Constipation	patients, CYP2D6 ultrarapid metabolizers	dose not given, long-acting oral or depot	–	adverse event incidence	0%
